Measured values collected from several papers.
Lines come from different studies, so protocols differ. ± marks the error that the study gave.
CYP2C19: Cytochrome P450 2C19 (CYP2C19, Homo sapiens, UniProt P33261)
Chain of UniProt P33261 (whole entry, looked up): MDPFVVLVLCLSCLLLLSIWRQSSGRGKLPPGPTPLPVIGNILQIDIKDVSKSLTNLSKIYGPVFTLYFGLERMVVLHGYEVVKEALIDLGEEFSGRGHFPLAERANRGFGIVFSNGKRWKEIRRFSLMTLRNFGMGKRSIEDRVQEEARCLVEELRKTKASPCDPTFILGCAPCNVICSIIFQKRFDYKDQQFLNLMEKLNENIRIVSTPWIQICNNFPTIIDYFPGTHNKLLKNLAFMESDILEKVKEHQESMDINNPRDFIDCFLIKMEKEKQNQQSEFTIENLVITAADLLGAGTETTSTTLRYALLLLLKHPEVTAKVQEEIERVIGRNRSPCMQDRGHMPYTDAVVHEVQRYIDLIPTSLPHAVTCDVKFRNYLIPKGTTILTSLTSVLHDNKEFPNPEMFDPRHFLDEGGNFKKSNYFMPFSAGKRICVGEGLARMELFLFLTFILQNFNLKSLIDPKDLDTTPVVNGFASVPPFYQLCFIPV
Chain of UniProt P05181 (whole entry, looked up): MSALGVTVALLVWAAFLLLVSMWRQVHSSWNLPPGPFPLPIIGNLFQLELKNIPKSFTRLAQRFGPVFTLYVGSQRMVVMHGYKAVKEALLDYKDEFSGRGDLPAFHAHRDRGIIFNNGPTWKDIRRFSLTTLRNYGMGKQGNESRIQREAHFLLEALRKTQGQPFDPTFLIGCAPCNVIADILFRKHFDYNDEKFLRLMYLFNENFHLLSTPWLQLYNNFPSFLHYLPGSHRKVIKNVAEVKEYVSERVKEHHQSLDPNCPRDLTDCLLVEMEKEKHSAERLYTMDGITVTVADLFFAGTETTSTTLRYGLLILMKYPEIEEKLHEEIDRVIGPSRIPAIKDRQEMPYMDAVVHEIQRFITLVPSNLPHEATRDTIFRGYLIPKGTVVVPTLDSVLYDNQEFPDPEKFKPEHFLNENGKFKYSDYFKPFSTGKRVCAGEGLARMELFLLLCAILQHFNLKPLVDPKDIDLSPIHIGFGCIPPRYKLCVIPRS
Chain of UniProt Q80W57 (whole entry, looked up): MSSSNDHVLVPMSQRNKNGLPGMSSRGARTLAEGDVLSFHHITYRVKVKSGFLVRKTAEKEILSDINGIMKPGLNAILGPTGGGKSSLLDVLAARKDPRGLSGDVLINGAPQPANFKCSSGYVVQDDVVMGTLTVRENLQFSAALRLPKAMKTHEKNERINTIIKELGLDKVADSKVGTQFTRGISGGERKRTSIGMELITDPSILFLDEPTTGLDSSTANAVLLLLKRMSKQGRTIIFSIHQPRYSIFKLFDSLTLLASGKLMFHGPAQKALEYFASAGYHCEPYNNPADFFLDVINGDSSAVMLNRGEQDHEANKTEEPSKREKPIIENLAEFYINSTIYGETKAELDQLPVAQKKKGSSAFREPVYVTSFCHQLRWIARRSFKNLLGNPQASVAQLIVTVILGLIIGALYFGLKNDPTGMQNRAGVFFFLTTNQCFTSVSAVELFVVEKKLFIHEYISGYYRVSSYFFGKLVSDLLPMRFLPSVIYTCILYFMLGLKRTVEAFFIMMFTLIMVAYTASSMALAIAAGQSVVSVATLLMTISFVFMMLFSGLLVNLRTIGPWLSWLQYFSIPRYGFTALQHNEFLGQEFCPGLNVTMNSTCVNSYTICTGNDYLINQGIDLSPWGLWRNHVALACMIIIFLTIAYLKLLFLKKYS

SMILES	tested on	test	test system	setting	scale	quantity	value
O=C(O)c1cc(/N=N/c2ccc(S(=O)(=O)Nc3ccccn3)cc2)ccc1O	Abcg2 (Rattus norvegicus, UniProt Q80W57)	substrate	male Sprague-Dawley rat, plasma	oral, 2 mg/kg		AUC(0-inf)	223 ± 99 ng·h/mL
CC(C)C[C@H](NC(=O)[C@]1(Cc2ccccc2)CCN1C(=O)OCc1ccccc1)C(N)=O	HEL	microscopic cell morphology				minimum cytotoxic concentration	100 µM
O=C(O)CCCCCCCCCCCCCCC(=O)O	OATP1B1		human, plasma	concentration not given, 12 h after first cyclosporine dose, genotype CC, together with: oral cyclosporine plus pravastatin		trough plasma concentration	111 nM
COc1ccc(C2CC(c3ccccc3)=NN2c2ccc(S(N)(=O)=O)cc2)cc1 (centres unmarked)	Staphylococcus aureus		HUVEC, MSSA ATCC 29213	10 µmol/L, 48 h	relative to: vehicle	viable intracellular bacteria	85%
COc1ccccc1N1CCN(C(CNS(=O)(=O)c2ccc(Cl)cc2)c2cccnc2)CC1 (centres unmarked)	Trypanosoma cruzi	trypomastigote viability	Tulahuen	86.5 µM, 48 h, solid sample		activity	65%
C=C	Cytochrome P450 2E1 (CYP2E1, Homo sapiens, UniProt P05181)	ethylene oxide formation, substrate	human, human liver microsomes			Km	16 µM
O=C(O)CCCCCCCCCCCCC(=O)O	OATP1B1		human, plasma	concentration not given, 12 h after first cyclosporine dose, genotype TC, together with: oral cyclosporine plus pravastatin		trough plasma concentration	44.2 nM
C[C@H](NC(=O)[C@H](Cc1ccccc1)NC(=O)OCc1ccccc1)C(N)=O	HEL	microscopic cell morphology				minimum cytotoxic concentration	> 100 µM
CC1(C)[C@@H](O[C@H]2O[C@H](C(=O)O)[C@@H](O)[C@H](O)[C@H]2O[C@@H]2O[C@H](C(=O)O)[C@@H](O)[C@H](O)[C@H]2O)CC[C@]2(C)[C@H]3C(=O)C=C4[C@@H]5C[C@@](C)(C(=O)O)CC[C@]5(C)CC[C@@]4(C)[C@]3(C)CC[C@@H]12	Epstein-Barr virus		superinfected Raji cells		relative to: CC50 over EC50	therapeutic index	150
CC1=N[C@]2(C(=O)CO)[C@@H](C[C@H]3[C@@H]4C[C@@H](O)C5=CC(=O)C=C[C@]5(C)[C@H]4[C@@H](O)C[C@@]32C)O1	CYP2C19		pooled human liver microsomes	30 min preincubation, together with: S-mephenytoin probe and NADPH		IC50	> 50 µM
C[C@@H](NC(=O)[C@@]1(Cc2ccccc2)CCN1C(=O)OCc1ccccc1)C(N)=O	HEL	microscopic cell morphology				minimum cytotoxic concentration	> 100 µM
O=c1[nH]c(=O)c(Cc2cccc(C(F)(F)F)c2)c([C@H]2CC[C@H](c3ccccc3)CC2)[nH]1	CYP2C19		human, plasma	oral, 600 mg, day 10, geometric mean, together with: fluvoxamine		AUC(0-inf)	14600 ng·h/mL
CCOc1cccc2sc(N(Cc3cccnc3)C(=O)C3CCCCC3)nc12	Trypanosoma cruzi	trypomastigote viability	Tulahuen	86.5 µM, 48 h, solid sample		activity	96%
CCCCCCCCCCCCCNCC(=O)N(CC(=O)N(CCCCN)CC(=O)N(CCN)CC(=O)N(CC(N)=O)[C@@H](C)c1ccccc1)[C@@H](C)c1ccccc1	HepG2	cytotoxicity, MTT		72 h		TD50	167 ± 104 µg/mL

For quick reference, copied from above:
SMILES	tested on	test	test system	setting	scale	quantity	value
CC(C)C[C@H](NC(=O)[C@]1(Cc2ccccc2)CCN1C(=O)OCc1ccccc1)C(N)=O	HEL	microscopic cell morphology				minimum cytotoxic concentration	100 µM
O=C(O)CCCCCCCCCCCCCCC(=O)O	OATP1B1		human, plasma	concentration not given, 12 h after first cyclosporine dose, genotype CC, together with: oral cyclosporine plus pravastatin		trough plasma concentration	111 nM
